{"data": "Results pooled from the literature", "note": "Protocols differ between the studies behind these lines. “And” joins repeats or separate records; there may be more than shown. ± marks the error that the study gave."}
{"Compound": "C=CC1=C(C)c2cc3[n-]c(cc4nc(cc5[n-]c(cc1n2)c(C)c5C=C)C(C)=C4CCC(=O)O)c(CCC(=O)O)c3C.[Zn+2]", "target or system": "SH-SY5Y", "assay": "RNA-seq, measured: XYLT1 mRNA", "setting": "5 µM, 5 h", "scale": "reference: untreated cells", "measurement": "fold change", "result": 1.79}
{"Compound": "O=C(C[C@@H](C(F)F)n1ccc(F)n1)N1CCC(O)(Cn2cnc3c(cnn3-c3ccc(F)cc3)c2=O)CC1", "target or system": "CHP-212 USP7 V517F knock-in clone", "assay": "SRB", "setting": "0.02744 µM", "measurement": "viability", "result": "95.2%"}
{"Compound": "CCn1cc(-c2cc(Cn3ccnc3)cc3c2CCN([C@H](c2cc(OC)ccn2)C2CC2)C3=O)c(C(F)(F)F)n1", "target or system": "22Rv1", "assay": "cell growth, inhibitor", "setting": "120 h", "measurement": "EC50", "result": "> 30 µM"}
{"Compound": "COc1c(C)c(OC(C)=O)c(C)c(O)c1C(=O)/C=C/c1ccccc1", "target or system": "SH-SY5Y", "assay": "SRB", "scale": "reference: normal over SH-SY5Y IC50", "measurement": "selectivity index", "result": 1.09}
{"Compound": "CC(=O)c1nn(-c2ccc(Cl)cc2)/c(=N/N=C(\\C)c2ccc(NC(=O)c3ccccc3)cc2)s1", "target or system": "HepG2", "setting": "0.156 µM", "measurement": "toxicity", "result": "45.8% and 61.7%"}
{"Compound": "COc1cnc2cccc(N3CCc4c(cc(Cn5ccnc5C)cc4-c4cn(C)nc4C(F)(F)F)C3=O)c2c1", "target or system": "Li-7", "assay": "cell growth, inhibitor", "setting": "120 h", "measurement": "EC50", "result": "0.903 µM"}
{"Compound": "C[C@H]1[C@@H](O)O[C@@H]2O[C@@]3(C)CC[C@H]4[C@H](C)CC[C@@H]1[C@@]24OO3", "target or system": "THP-1", "assay": "annexin V/PI flow cytometry, measured: annexin V-/PI-", "setting": "0.2 µM, 24 h", "measurement": "viable cells", "result": "96.2%"}
{"Compound": "CCN(CCO)CCCC(C)Nc1ccnc2cc(Cl)ccc12 (stereo not drawn)", "target or system": "human PBMC", "assay": "qRT-PCR, measured: IFI44L mRNA", "setting": "1000 nM, added: ssRNA", "measurement": "inhibition", "result": "14 ± 18%"}
{"Compound": "COc1cc(/C=C/C(=O)N2CCC=CC2=O)cc(OC)c1OC", "target or system": "MDA-MB-468", "assay": "qRT-PCR, measured: MAPK10", "setting": "30 µM, 6 h", "scale": "reference: time zero", "measurement": "mRNA level", "result": "155 ± 133%"}
{"Compound": "Cc1nn(-c2nc3c(F)cc(F)cc3s2)c(O)c1C(c1ccc(C(F)(F)F)cc1)c1c(C)nn(-c2nc3c(F)cc(F)cc3s2)c1O", "target or system": "THP1-Dual", "assay": "IFN luciferase reporter", "setting": "40 µM, added: HT-DNA", "measurement": "inhibition", "result": "101%"}
{"Compound": "C=CCn1c(=O)c2cnc(Nc3ccc(N4CCN(C)CC4)cc3)nc2n1-c1ccc2c(n1)[C@@](O)(CC)CC2", "target or system": "MDA-MB-231", "assay": "flow cytometry", "setting": "concentration not given", "measurement": "G1 phase cells", "result": "33.7%"}
{"Compound": "CC(C)Cn1cnc2c(N)nc3ccccc3c21", "target or system": "THP-1-derived macrophages", "assay": "induction, ELISA", "setting": "10 µg/mL, 24 h", "scale": "reference: untreated", "measurement": "IL-6 level", "result": "44 fold"}
{"Compound": "O=c1ccn([C@@H]2O[C@H](CO)[C@@H](O)[C@H]2O)c(=O)[nH]1", "target or system": "activated human T cells", "system": "human", "setting": "316 nM", "measurement": "T cell proliferation", "result": "38.9% and 22.3% and 48.3% and 23.9% and 38.7%"}
{"Compound": "Cn1cc(-c2ccc(-c3cncc(Cl)c3N3CCC4(CCNC4=O)CC3)cc2)cn1", "target or system": "COLO 205", "assay": "gene expression, microarray, measured: FOXM1 mRNA", "setting": "concentration not given, 6 h", "scale": "reference: untreated cells", "measurement": "log2 fold change", "result": -2.31}
{"Compound": "O=C(NCCc1cccnc1)c1ccc([C@H]2[C@@H](F)[C@@H](F)C[C@@H](F)[C@H]2F)cc1", "assay": "hepatocyte stability", "system": "cryopreserved mouse hepatocytes", "setting": "1 µM", "measurement": "hepatic clearance", "result": "55 mL/min/kg"}
{"Compound": "CCCCN1C[C@H](O)[C@@H](O)[C@H](O)[C@H]1CO", "target or system": "Sandhoff disease patient fibroblasts", "assay": "glycosphingolipid lowering, LC-MS/MS, measured: Gb3 d18:0/22:0", "measurement": "IC50", "result": "3.18 µM"}
{"Compound": "Cc1nc(NC(=O)N2CCC[C@H]2C(N)=O)sc1-c1ccnc(C(C)(C)C(F)(F)F)c1", "target or system": "SNU-1076", "assay": "cell growth, CellTiter-Glo", "setting": "120 h", "measurement": "EC50", "result": "1.14 µM"}
{"Compound": "C[C@]12CCCN1CC1=NNC(=O)c3cc(F)cc4[nH]c2c1c34", "target or system": "AZ-521 gastric cancer cells", "assay": "cell viability", "setting": "concentration not given, added: with temozolomide", "measurement": "EC50", "result": "1 µM"}
{"Compound": "C=CC[C@@H]1c2ccc(OC)c(OC)c2CN2CCc3cc4c(cc3[C@H]12)OCO4", "target or system": "HEK293 transfected", "assay": "ATP-evoked current, whole-cell patch clamp", "setting": "30 µM, mutant F103W", "measurement": "normalised current", "result": "0.778 and 0.989 and 0.775"}
{"Compound": "Nc1cccc2c1C(=O)N(C1CCC(=O)NC1=O)C2=O (stereo not drawn)", "target or system": "RPMI-8226", "assay": "flow cytometry, measured: CD183", "setting": "concentration not given", "scale": "reference: comparator compound alone", "measurement": "surface marker level", "result": "154%"}
{"Compound": "O=C(Cn1ccnc1)Nc1ccc(C2CCCCC2)cc1", "system": "cryopreserved mouse hepatocytes", "setting": "1 µM", "measurement": "hepatic clearance", "result": "42 mL/min/kg"}
